Assay results of several laboratories.
Numbered parts are unrelated; each lists some results of a single study.

Set 1
Target: Prothrombin, mature alpha-thrombin (F2, Homo sapiens, UniProt P00734)
Technique: aptamer microarray, sandwich
Molecule type: DNA with 2'F-ANA
Medium: in vitro
Tested at: 200 nM
Setting: whole 15-mer aptamer, many near background
With: Cy3 exosite-II aptamer, 400 nM
Direction: higher = stronger binding
Strand: GGTTGGTGTGGTTGG
| Modification | mean fluorescence intensity |
| --- | --- |
| 2'F-ANA at 1 5 6 7 8 14 15 | 49.3 a.u. |
| 2'F-ANA at 2 4 6 7 8 12 14 | 155 a.u. |
| 2'F-ANA at 5 6 8 9 12 13 15 | 139 a.u. |
| 2'F-ANA at 1 4 7 10 11 12 15 | 55.7 a.u. |
| 2'F-ANA at 2 3 4 6 7 8 9 11 12 13 | 658 a.u. |
| 2'F-ANA at 2 3 6 7 8 9 12 13 14 | 396 a.u. |
| 2'F-ANA at 1 7 11 12 13 14 15 | 71.3 a.u. |
| 2'F-ANA at 4 8 9 10 13 14 | 57.5 a.u. |
| 2'F-ANA at 1 2 3 4 5 6 7 8 11 14 15 | 48.5 a.u. |
| 2'F-ANA at 1 2 3 5 6 8 9 10 12 13 14 15 | 52.1 a.u. |

Set 2
Target: Hepatocyte nuclear factor 3-beta, forkhead domain (FOXA2, Homo sapiens, UniProt Q9Y261, residues 142-269)
Technique: protein-binding microarray
Molecule type: double-stranded DNA, one strand shown
Medium: in vitro
Tested at: not given
Setting: k-mer, scored over probes, only values ≥0.25
Direction: higher = stronger binding
Target sequence (chain): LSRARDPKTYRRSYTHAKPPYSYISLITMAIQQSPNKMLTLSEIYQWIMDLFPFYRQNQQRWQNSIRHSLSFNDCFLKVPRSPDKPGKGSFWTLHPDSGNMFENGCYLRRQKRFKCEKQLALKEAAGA
| Strand | E-score |
| --- | --- |
| GTATTGTA | 0.33 |
| GTTTGCGA | 0.252 |
| GTGTTTGA | 0.353 |
| GCTATTTA | 0.256 |
| ATCTCAAC | 0.296 |
| AAACAAGA | 0.251 |
| GTTATATA | 0.352 |
| CACTATAG | 0.266 |
| GCTATACA | 0.284 |
| CTATTAAC | 0.293 |
| AATTTAAT | 0.263 |
| CATTGTAA | 0.272 |
| CGCAAATA | 0.282 |

Set 3
Target: RNA binding protein fox-1 homolog 2, RRM domain, GST-SBP tag (RBFOX2, Homo sapiens, UniProt O43251-10, residues 100-194)
Technique: RNA Bind-n-Seq
Molecule type: RNA
Medium: in vitro
Tested at: 365 nM
Setting: natural RNA segment, single round, ends assumed
Reference: no-protein control
Direction: higher = stronger binding
Construct (chain): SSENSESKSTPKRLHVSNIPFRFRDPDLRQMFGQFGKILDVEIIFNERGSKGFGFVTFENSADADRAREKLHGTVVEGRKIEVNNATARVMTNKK
| Strand | RBNS enrichment (R) |
| --- | --- |
| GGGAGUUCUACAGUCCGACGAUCUCACCAAGCUGAGGUGUCUGAAGCCUGGAGCUACUGGGACCCCUCCUCUCCUCUAUAGCUAUUAGAUGUGUCAGGACCAAGUUGACCCCAACUUUCAGAACGUCCCUAGCUGGAAUUCUCGGGUGCCAA | 0.245 |
| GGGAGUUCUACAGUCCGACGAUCUGUUUUGUUUUUUUCCCUGCACCACAAGCUGUGUUUAUCACUUUACAGUUGCAUGUUCAACUUGUCAUAGCUGGAAUUACUGUAUAAAAAGAACUGAUUGUGACUUGUAGUGGAAUUCUCGGGUGCCAA | 14.2 |
| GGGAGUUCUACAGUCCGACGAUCUUCUAGAAACCGCAGCUGACAUCUCGACCCAAGAGAUUUAGGAUUCUCCUGUUUCAUCUGGGUCAGUUUGGCCAUAAUUCUGGGGUCAGGCCAGGCCUGGGUCCUGCCCUUGGAAUUCUCGGGUGCCAA | 0.289 |
| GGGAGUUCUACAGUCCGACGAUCCCUCCCCUCCCCCGAGGGCAGACCCAGCCAGCUGCUAAGCUCUGCAGCUCCCCAGUGGACAGUGUCAUUGUGCCCAGAGUGCUGCAAGGUGAGGCCUGCUGUGCUGCCCGUGGAAUUCUCGGGUGCCAA | 0.282 |
| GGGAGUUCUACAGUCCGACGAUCAGGGCCCCUCUCCUGGCAUCUGUCUCUUGCUACCUAAGCCUGUGCCUCUCCCUAAAGAGCUGCCUCCCUGCUGCCGAGCCCUGGUCUGGCCACGAGCCACCACUGCCUCCUGGAAUUCUCGGGUGCCAA | 0.536 |
| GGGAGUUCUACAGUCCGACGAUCGUUGAAAUCAGGGGUGCCCAGCAGAGCCCAUCAUUCUCACUGUCUUUGAAACAAAGCUGUACGGUUUGAUCGAUGAACGUAUUUAAAGCAUUUCAUGCAAUGACAAAGUGUGGAAUUCUCGGGUGCCAA | 0.426 |
| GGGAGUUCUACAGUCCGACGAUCAUGGCUUGUUCAUAGAAUGAUGCUACUGUGACUUCAAAACUGAUCUCAAGUAUUCUAGAAUCUGCUGGGACAUUGGGCUGUUUCUCAACUUAUGUGUCUACUUGGAGAGAUGGAAUUCUCGGGUGCCAA | 0.408 |
| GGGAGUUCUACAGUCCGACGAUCCCCCUGACCACCCUACCUUUUUGCAUCAAACACUGGGAAUGCUUCCUCAGUCCCUGCUCCAAACUAUGAAGCUCACCCUUCAUUUUUCCUCCCUGCUAUUGUGGACCUAAUGGAAUUCUCGGGUGCCAA | 1.78 |

Mixed results
| Substance | target | assay | system | setting | how to read | quantity | result |
| --- | --- | --- | --- | --- | --- | --- | --- |
| PhoQ, residues 284 288 289 292 302 303 SLKLQV | PhoP, residues 12 14 15 18 19 GHCSL (Escherichia coli, UniProt P23836) | Sort-seq, measured: YFP reporter | E. coli | PhoQ-PhoP variant library, with: 10 µM Mg2+ | reference: high Mg2+ state, higher = stronger signaling | fold induction | 8.85 |

A few entries again (set 3):
| Strand | RBNS enrichment (R) |
| --- | --- |
| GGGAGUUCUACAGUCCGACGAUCCCUCCCCUCCCCCGAGGGCAGACCCAGCCAGCUGCUAAGCUCUGCAGCUCCCCAGUGGACAGUGUCAUUGUGCCCAGAGUGCUGCAAGGUGAGGCCUGCUGUGCUGCCCGUGGAAUUCUCGGGUGCCAA | 0.282 |
| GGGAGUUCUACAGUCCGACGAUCUGUUUUGUUUUUUUCCCUGCACCACAAGCUGUGUUUAUCACUUUACAGUUGCAUGUUCAACUUGUCAUAGCUGGAAUUACUGUAUAAAAAGAACUGAUUGUGACUUGUAGUGGAAUUCUCGGGUGCCAA | 14.2 |
| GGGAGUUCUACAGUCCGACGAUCCCCCUGACCACCCUACCUUUUUGCAUCAAACACUGGGAAUGCUUCCUCAGUCCCUGCUCCAAACUAUGAAGCUCACCCUUCAUUUUUCCUCCCUGCUAUUGUGGACCUAAUGGAAUUCUCGGGUGCCAA | 1.78 |
